# Experimental data collected from several papers.
# Compare with care: the assays were run in different laboratories. ± marks the error that the study gave.
SMILES,assay,test system,setting,pKa1
CCOC(=O)CN1CCN(CC(=O)OCC)CCN(Cc2cc(-c3nc4ccccc4s3)cc(OC)c2O)CC1,UV-Vis pH titration,,"25 °C, ionic strength 0.1 M NaCl",4.78
COc1cc(-c2nc3ccccc3s2)cc(CN2Cc3cccc(n3)CNCc3cccc(n3)C2)c1O,"UV-vis spectrophotometric titration, refers to: H4L3+/H3L2+ equilibrium",MeOH/water with NaCl,"50 µM, room temperature, NaCl 0.1 M, MeOH ≤20% v/v",5.14
COc1cc(-c2nc3ccccc3s2)cc(CN2CCN(CC(=O)OC(C)C)CCN(CC(=O)OC(C)C)CC2)c1O,UV-Vis pH titration,,"25 °C, ionic strength 0.1 M NaCl",5.09
O=C(O)[C@@H]1C[C@@H](O)CN1C(=O)[C@@H]1CCCN1,potentiometric titration,water,"37 °C, 0.15 mol/dm3 NaCl",< 2
C(=NNC1=NCc2ccccc2-c2c1[nH]c1ccccc21)c1ccccn1,UV-vis titration,DMSO-water 30 to 70% w/w,"298 K, ionic strength 0.10 M KCl",2.51 ± 0.01
COc1cc(-c2nc3ccccc3s2)cc(CN2CCN(C)CCN(C)CC2)c1O,"UV-vis spectrophotometric titration, refers to: H4L3+/H3L2+ equilibrium",MeOH/water with NaCl,"50 µM, room temperature, NaCl 0.1 M, MeOH ≤20% v/v",3.78
NCC(=O)N1CCC[C@H]1C(=O)N1C[C@H](O)C[C@H]1C(=O)O,potentiometric titration,water,"25 °C, 0.15 mol/dm3 NaCl",2.42
COc1cc(-c2nc3ccccc3s2)cc(CN2CCN(CC(=O)O)CCN(CC(=O)O)CC2)c1O,UV-Vis pH titration,,"25 °C, ionic strength 0.1 M NaCl",3.83
COc1cc(-c2nc3ccccc3s2)cc(CN2Cc3cccc(n3)CN(C)Cc3cccc(n3)C2)c1O,"UV-vis spectrophotometric titration, refers to: H4L3+/H3L2+ equilibrium",MeOH/water with NaCl,"50 µM, room temperature, NaCl 0.1 M, MeOH ≤20% v/v",4.8
COc1cc(-c2nc3ccccc3s2)cc(CN(Cc2ccccn2)Cc2ccccn2)c1O,,methanol-water,"50 µM, 0.1 M NaCl",4.88

# Repeated from above:
SMILES,assay,test system,setting,pKa1
COc1cc(-c2nc3ccccc3s2)cc(CN2CCN(CC(=O)O)CCN(CC(=O)O)CC2)c1O,UV-Vis pH titration,,"25 °C, ionic strength 0.1 M NaCl",3.83
